Results of several laboratories.
Lines come from different studies, so protocols differ. “And” joins repeats or separate records; there may be more than shown. ± marks the error that the study gave.
UniProt P06873, sequence (whole entry, looked up): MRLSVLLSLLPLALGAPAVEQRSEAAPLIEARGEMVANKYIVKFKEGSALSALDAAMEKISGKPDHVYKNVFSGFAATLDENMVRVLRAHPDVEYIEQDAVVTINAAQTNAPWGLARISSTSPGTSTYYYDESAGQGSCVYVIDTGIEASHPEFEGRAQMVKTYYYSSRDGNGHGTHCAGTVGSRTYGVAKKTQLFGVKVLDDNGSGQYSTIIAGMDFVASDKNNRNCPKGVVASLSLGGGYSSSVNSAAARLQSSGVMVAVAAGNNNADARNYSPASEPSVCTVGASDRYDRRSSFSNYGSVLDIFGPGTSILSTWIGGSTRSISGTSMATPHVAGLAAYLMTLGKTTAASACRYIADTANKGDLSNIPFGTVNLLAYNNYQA

CC[C@H](C)[C@H](NC(=O)[C@H](CC(N)=O)NC(=O)[C@@H](N)CCSC)C(=O)N[C@@H](CCSC)C(=O)N[C@@H](CC(=O)O)C(=O)N[C@@H](Cc1ccccc1)C(=O)N[C@@H](CC(N)=O)C(=O)N[C@H](C(=O)N[C@@H](CCCCN)C(=O)N[C@@H](CCCCN)C(=O)N[C@@H](CC(C)C)C(=O)N[C@@H](C)C(=O)N[C@@H](C)C(=O)N[C@@H](CC(=O)O)C(=O)N[C@@H](C)C(=O)NCC(=O)N[C@H](C(=O)N[C@@H](Cc1c[nH]c2ccccc12)C(=O)N[C@@H](CC(C)C)C(=O)N[C@@H](CO)C(=O)N[C@@H](CCCNC(=N)N)C(=O)N[C@@H](C)C(=O)N[C@H](C(=O)N[C@@H](CCC(N)=O)C(=O)N[C@@H](Cc1ccccc1)C(=O)N[C@H](C(=O)N[C@@H](CCC(=O)O)C(=O)N[C@@H](CCC(=O)O)C(=O)N[C@@H](CCCCN)C(=O)N[C@@H](CC(C)C)C(=O)NCC(=O)N[C@@H](CCC(N)=O)C(=O)N[C@@H](C)C(N)=O)[C@@H](C)O)C(C)C)[C@@H](C)O)C(C)C — ΔG of binding (circular dichroism titration; 100% DOPS liposomes; 50 µM, pH 7.4, 20 °C): -7.9 kcal/mol
CCCC[C@H](OC(C)=O)c1ccccc1C(=O)O — blood concentration (beagle dogs, both sexes, whole blood; intravenous, 5 mg/kg single dose, 1 min): 16200 ± 3470 ng/mL
COC1CN([C@H]2CC[C@H]([C@@]3(C)Oc4c(Cl)cc(C(=O)NCc5c(SC)cc(C)[nH]c5=O)c(C)c4O3)CC2)C1 — log2 fold change (RNA-seq, measured: MUSTN1; human, whole blood; dose not given, 24 h; reference: pretreatment baseline): 2.53
COc1ccnc(C(=O)N[C@H]2COC(=O)[C@H](Cc3ccccc3)[C@@H](OC(=O)C(C)C)[C@H](C)OC2=O)c1O — KFoc (soil adsorption; soil; pH 6.9, organic carbon 0.8 %): 27500 mL/g
CCn1nc(Cl)c2c1-c1cnc(N)c(c1)O[C@H](C)c1cc(F)ccc1-c1nn(C)cc1C2 — free plasma concentration (Balb/c nude mouse, female, plasma; 0.5 mg/kg, single dose, 12 h): 0.00168 µM
CC(C)(C)NCC(SS(=O)(=O)O)c1ccccc1 (stereo not shown) — body weight decrease (Swiss Webster mice, Schistosoma mansoni-infected; 100 mg/kg single dose on day 42 post-infection, perfusion day 56 post-infection; reference: vehicle): -4.62%
C=CC(=O)Nc1cccc(Cn2ncc3cnc(Nc4cnn(CCOC)c4)nc32)c1 — percent of control (CASK human; binding, KINOMEscan; 100 nM; lower = stronger binding): 99%
CN1CCC[C@]1(C)/C=C/S(=O)(=O)NC(=O)Nc1c2c(cc3c1CCC3O)CCC2 (stereo partly shown) — Cmax at second steady-state dose (human, plasma; oral, 50 mg twice daily of parent drug, day 14, metabolite of dosed drug): 34000 ng/mL
CCN(CC)CC#CCNc1ccnc2cc(Cl)ccc12 — revertants per well (Salmonella typhimurium; mini-Ames test; TA97a; 500.0 µg/well, with rat liver S9): 0
CN(C)S(=O)(=O)c1ccc(S(=O)(=O)N2CCC(n3c(=O)[nH]c4ccccc43)CC2)cc1 — relative body weight (mouse; dose not given, day 6; reference: day 0): 100% and 106%
O=C(O)CCCOc1ccc([18F])cc1-c1cc(-c2ccccc2C(F)(F)F)n(-c2ccccc2)n1 — radioactivity (mouse, large intestine; dose not given, 360 min): 6.4 %ID/organ
Nc1ncc(-c2cc(-c3cnn(CC(F)(F)F)c3)ncc2F)nc1C(=O)NC1CNCC(F)C1 (stereo not shown) — remaining binding (FGFR1; KINOMEscan; 1 µM; reference: DMSO control): 89%
CNS(=O)(=O)Nc1nccc(Cc2c(C)c3ccc(Oc4ncccc4F)cc3oc2=O)c1F — IC50 (HEL; cell viability; 7 days): > 1000 nM
CC(C)(O)c1ncc([S@](N)(=O)=NC(=O)Nc2c3c(cc4c2CCC4)CCC3)s1 — subjects with adverse events (measured: nervous system disorders; healthy human volunteers; oral, 600 mg single dose, spray-dried dispersion): 83%
Cc1c(Cc2cccc(OC(C)(C)C(=O)O)c2)c2ccc(C(=O)N[C@@H](C)c3cccc(C(C)(C)C)c3)cc2n1C(C)C — half-life (human liver microsomes): 40.7 min
C[C@@H](C(=O)O)c1ccc(-c2ccccc2)c(F)c1 — peak area change, RE (HPLC; sample solution; concentration not given, 12 h, room temperature, solution stability): 0.59%
N=C(N)NCCC[C@@H]1NC(=O)[C@H](CO)NC(=O)[C@@H](NC(=O)[C@H](CO)NC(=O)[C@H](CO)NC(=O)[C@H](Cc2c[nH]c3ccccc23)NC(=O)CNC(=O)[C@H](CO)NC(=O)[C@@H](N)Cc2c[nH]c3ccccc23)CSSC[C@@H](C(=O)NCC(=O)O)NC(=O)[C@H](CO)NC1=O — half-life (patients, plasma; intravenous, 10 mg/kg, thrice weekly, median): 17.6 min
CCCC[C@H](NC(C)=O)C(=O)N[C@@H](CO)C(=O)N[C@H](C(=O)N1CCC[C@H]1C(=O)N[C@]1(C)CCCCCCC=CCCC[C@@](C)(C(=O)N[C@@H](Cc2ccccc2)C(=O)N[C@@H](CCCCN)C(=O)N[C@@H](CCCNC(=N)N)C(=O)N[C@@H](CC(C)C)C(=O)N[C@@H](CCC(N)=O)C(N)=O)NC(=O)[C@H](CCCNC(=N)N)NC(=O)[C@H](CCCC)NC(=O)[C@H](CC(C)C)NC(=O)[C@H](CCCNC(=N)N)NC(=O)[C@H](CCCNC(=N)N)NC(=O)[C@H](CCCNC(=N)N)NC1=O)[C@@H](C)O — remaining intact peptide (Proteinase K (PROK, Engyodontium album, UniProt P06873); proteolytic stability, LC-MS; 25 µM, 615.1 min, pH 7.4): 31.9%
CC(=O)N([O-])CCCCCNC(=O)CCC(=O)N([O-])CCCCCNC(=O)CCC(=O)N([O-])CCCCCN.[89Zr+4] — tracer uptake (mouse, lung; 1 h): 0.74 %ID/g
Cc1ncsc1-c1ccc(C(C)NC(=O)C2CC(O)CN2C(=O)C(NC(=O)CCCCCCCCCCN2CCCC(Nc3ncc(Cl)c(Nc4ccccc4S(=O)(=O)C(C)C)n3)C2)C(C)(C)C)cc1 (stereo not shown) — log2 fold change (22Rv1; RNA-seq, measured: RTN4RL1 mRNA; concentration not given; reference: DMSO): -2.6
CNc1cc(C)c(C(N)=O)cn1 — concentration at time (Han Wistar rats, male, plasma; oral, 30 mg/kg, 0.50 h): 88.3 µM
C#CCOCCOCCOCCOCCn1cc(C(ONC(=O)/C=C/C(C)=C/C2(C)Oc3cc(N(C)C)ccc3C2=O)(c2ccc(C)cc2)c2ccc(C)cc2)nn1 (stereo not shown) — release from prodrug hydrolysis (HPLC; aqueous buffer, 20% acetonitrile; concentration not given, 43 min, pH 3; reference: initial prodrug amount): 93.5%

Some of these lines once more:
C=CC(=O)Nc1cccc(Cn2ncc3cnc(Nc4cnn(CCOC)c4)nc32)c1 — percent of control (CASK human; binding, KINOMEscan; 100 nM; lower = stronger binding): 99%
Cc1c(Cc2cccc(OC(C)(C)C(=O)O)c2)c2ccc(C(=O)N[C@@H](C)c3cccc(C(C)(C)C)c3)cc2n1C(C)C — half-life (human liver microsomes): 40.7 min
